Published values pooled from the literature.
Lines come from different studies, so protocols differ. “And” joins repeats or separate records; there may be more than shown.
Target: Inhibitor of nuclear factor kappa-B kinase subunit epsilon (IKBKE, Homo sapiens, UniProt Q14164)

Structure (SMILES)	test	test system	conditions	scale	endpoint	value
CNC(=O)C[C@H](Cc1ccc(C#N)cc1)NC(=O)c1cc(-c2ccc(CN[C@H](C)c3ccc(C)cc3)o2)ccc1Cl	enzyme activity, inhibitor		1 µM		activity vs control	98%
CN1CC[C@@H](COc2cnc(C#N)cc2-c2ccn3nc(NC(=O)C4CC4)cc3c2)C1	enzyme activity, inhibitor		1 µM		inhibition	8%
Cc1ccc(C)c(-c2ccc3nc(NC(=O)C4CCCCC4)nn3c2)c1	enzyme activity, Dundee kinase panel		10 µM		remaining activity	104%
COCC12C(=O)NC3C4(C(OC)CC1O)C1CC5(O)C(OC)C(O)C(OC(C)=O)(C1C5OC(=O)c1ccccc1)C3(O)C(OC)C24 (stereo not shown)	kinase activity, inhibitor, ProQinase kinase profiling		25 µM	relative to: control	remaining activity	85% and 98%
Nc1ncc2c(n1)-c1c([nH]c3ccc(C4=CCOCC4)cc13)CCC2	binding, competition with immobilised ligand		1 µM		remaining binding	100%
CS(=O)(=O)Nc1cccc(-c2csc3cnc(Nc4ccc(N5CCN(CCCCCOc6cccc7c6C(=O)N(C6CCC(=O)NC6=O)C7=O)CC5)cc4)nc23)c1 (stereo not shown)	probe labelling, inhibitor, KiNativ chemoproteomics	MOLT-4	1 µM		inhibition	83.5%
Cc1cccc(O[C@H]2CCC[C@@H](C(C)CNCc3ccncc3)C2)c1 (relative stereo)	enzyme activity, inhibitor		10 µM		inhibition	16%
C=CC(=O)Nc1cccc(-c2cnc3[nH]cc(C(=O)NC(C)(C)C)c3n2)c1	kinase activity		0.1 µM		inhibition	11% and 13%
Cc1cnc2nc1Nc1cccc(c1)COC/C=C/COCc1cc(ccc1OCCN1CCOCC1)N2	binding, competition with immobilised ligand		0.1 µM		remaining binding	95%
CCn1cc(C(=O)O)c(=O)c2c(N)c(F)c(NC3CCCCC3)cc21	kinase activity		0.1 µM, with: ATP at Km		inhibition	-4.4%
Cc1cccc(-c2ccc3nc(NC(=O)C4CCCO4)nn3c2)c1 (stereo not shown)	enzyme activity, Dundee kinase panel		10 µM		remaining activity	100%
C=CC(=O)N1CCCC(n2c(=O)c3ncccc3n(Cc3ccc(Oc4ccccc4)cc3)c2=O)C1 (stereo not shown)	binding, competition with immobilised ligand		1 µM		remaining binding	99%
COc1c(Cl)cccc1Nc1c(-c2ccncc2C#C[C@@]2(C)CCCN2C(=O)/C=C/CN(C)C)[nH]c2c1C(=O)NCC2	binding, competition with immobilised ligand		3 µM		remaining binding	85%
NC(=O)[C@@H](O)C[C@H]1CCc2sc3ncnc(O[C@H]4CC[C@H](N5CCOCC5)CC4)c3c21	enzyme activity, inhibitor		10 µM		inhibition	-1%
CCN1CCN(Cc2ccc(C(=O)Nc3ccc(C)c(NCc4cnc5[nH]ccc5c4OC)c3)cc2C(F)(F)F)CC1	binding, competition with immobilised ligand		1 µM		remaining binding	100%
COc1cc(Nc2nccc(-c3cnn4nc(OC)ccc34)n2)cc(C(F)(F)F)c1	binding, competition with immobilised ligand		1 µM		remaining binding	65%

For quick reference, copied from above:
Structure (SMILES)	test	test system	conditions	scale	endpoint	value
Cc1cnc2nc1Nc1cccc(c1)COC/C=C/COCc1cc(ccc1OCCN1CCOCC1)N2	binding, competition with immobilised ligand		0.1 µM		remaining binding	95%
